# Measured values from different studies.
# Compare with care: the assays were run in different laboratories. ± marks the error that the study gave.
# Cytochrome P450 2A13: Cytochrome P450 2A13 (Homo sapiens, UniProt Q16696)
# Chain of UniProt Q16696 (whole entry, looked up): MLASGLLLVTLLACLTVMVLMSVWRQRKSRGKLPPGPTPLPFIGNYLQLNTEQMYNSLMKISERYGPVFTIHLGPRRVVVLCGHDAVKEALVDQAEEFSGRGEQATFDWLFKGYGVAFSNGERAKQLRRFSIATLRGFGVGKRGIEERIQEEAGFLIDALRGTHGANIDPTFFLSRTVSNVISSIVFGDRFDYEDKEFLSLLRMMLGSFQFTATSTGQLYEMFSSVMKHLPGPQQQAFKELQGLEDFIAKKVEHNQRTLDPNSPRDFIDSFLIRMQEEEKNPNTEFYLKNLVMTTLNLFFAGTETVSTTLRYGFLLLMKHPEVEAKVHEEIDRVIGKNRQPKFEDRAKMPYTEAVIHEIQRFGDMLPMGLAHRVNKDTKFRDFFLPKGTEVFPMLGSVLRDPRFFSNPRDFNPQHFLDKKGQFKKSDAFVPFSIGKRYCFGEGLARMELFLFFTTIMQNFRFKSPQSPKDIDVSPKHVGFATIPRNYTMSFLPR
# cat: Chloramphenicol acetyltransferase (cat, Escherichia coli, UniProt P62577)
# Chain of UniProt P62577 (whole entry, looked up): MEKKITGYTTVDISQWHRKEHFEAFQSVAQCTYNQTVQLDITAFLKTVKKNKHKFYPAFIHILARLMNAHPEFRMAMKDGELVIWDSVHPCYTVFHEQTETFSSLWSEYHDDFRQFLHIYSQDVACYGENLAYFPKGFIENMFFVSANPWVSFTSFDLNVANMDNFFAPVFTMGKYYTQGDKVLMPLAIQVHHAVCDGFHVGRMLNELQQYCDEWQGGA
# Chain of UniProt P12004 (whole entry, looked up): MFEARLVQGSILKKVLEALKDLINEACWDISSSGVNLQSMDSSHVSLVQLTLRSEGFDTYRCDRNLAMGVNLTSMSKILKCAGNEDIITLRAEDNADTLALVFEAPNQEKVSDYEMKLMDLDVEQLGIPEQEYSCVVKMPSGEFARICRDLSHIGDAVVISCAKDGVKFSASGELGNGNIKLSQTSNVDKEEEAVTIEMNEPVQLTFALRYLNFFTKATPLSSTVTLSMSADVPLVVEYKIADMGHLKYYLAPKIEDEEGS
# Chain of UniProt Q9BYF1 (whole entry, looked up): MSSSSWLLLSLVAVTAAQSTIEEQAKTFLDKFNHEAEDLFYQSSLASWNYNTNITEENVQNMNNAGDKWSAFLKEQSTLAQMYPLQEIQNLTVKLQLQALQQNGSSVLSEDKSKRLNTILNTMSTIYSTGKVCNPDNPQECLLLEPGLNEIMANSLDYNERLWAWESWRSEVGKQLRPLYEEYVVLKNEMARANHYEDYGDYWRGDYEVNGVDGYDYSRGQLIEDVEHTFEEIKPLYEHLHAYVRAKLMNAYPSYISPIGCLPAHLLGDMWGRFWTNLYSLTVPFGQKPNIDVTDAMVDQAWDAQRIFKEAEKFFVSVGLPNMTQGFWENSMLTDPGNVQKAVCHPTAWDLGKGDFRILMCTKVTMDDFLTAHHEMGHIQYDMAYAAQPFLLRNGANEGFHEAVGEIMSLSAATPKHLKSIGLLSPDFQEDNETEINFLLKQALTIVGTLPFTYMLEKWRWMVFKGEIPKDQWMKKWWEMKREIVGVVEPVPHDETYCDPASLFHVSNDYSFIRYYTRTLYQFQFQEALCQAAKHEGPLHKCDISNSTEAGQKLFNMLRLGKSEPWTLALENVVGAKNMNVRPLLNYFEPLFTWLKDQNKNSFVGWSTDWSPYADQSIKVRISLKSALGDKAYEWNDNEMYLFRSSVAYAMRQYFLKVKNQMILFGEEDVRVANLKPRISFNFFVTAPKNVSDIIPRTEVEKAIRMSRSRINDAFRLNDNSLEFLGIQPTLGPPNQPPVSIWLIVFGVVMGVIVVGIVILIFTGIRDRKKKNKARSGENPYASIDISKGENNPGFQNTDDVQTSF
# Chain of UniProt P0DMV8 (whole entry, looked up): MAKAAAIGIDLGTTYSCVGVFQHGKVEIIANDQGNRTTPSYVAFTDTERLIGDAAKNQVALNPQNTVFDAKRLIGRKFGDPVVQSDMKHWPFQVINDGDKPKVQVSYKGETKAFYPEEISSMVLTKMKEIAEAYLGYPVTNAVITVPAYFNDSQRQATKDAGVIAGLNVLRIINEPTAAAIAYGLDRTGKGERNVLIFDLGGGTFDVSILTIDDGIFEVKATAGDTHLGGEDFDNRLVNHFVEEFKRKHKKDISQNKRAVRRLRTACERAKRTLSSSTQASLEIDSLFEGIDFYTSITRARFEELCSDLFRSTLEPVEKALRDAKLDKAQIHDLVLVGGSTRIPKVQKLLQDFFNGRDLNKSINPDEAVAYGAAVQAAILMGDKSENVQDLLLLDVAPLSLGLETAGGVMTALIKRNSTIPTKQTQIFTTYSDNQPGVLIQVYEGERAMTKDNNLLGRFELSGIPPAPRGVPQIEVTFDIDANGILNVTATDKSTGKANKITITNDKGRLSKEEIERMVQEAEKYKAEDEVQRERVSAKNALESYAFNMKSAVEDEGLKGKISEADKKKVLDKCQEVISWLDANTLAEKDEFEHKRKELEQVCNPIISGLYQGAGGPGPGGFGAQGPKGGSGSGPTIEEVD
# Chain of UniProt Q15561 (whole entry, looked up): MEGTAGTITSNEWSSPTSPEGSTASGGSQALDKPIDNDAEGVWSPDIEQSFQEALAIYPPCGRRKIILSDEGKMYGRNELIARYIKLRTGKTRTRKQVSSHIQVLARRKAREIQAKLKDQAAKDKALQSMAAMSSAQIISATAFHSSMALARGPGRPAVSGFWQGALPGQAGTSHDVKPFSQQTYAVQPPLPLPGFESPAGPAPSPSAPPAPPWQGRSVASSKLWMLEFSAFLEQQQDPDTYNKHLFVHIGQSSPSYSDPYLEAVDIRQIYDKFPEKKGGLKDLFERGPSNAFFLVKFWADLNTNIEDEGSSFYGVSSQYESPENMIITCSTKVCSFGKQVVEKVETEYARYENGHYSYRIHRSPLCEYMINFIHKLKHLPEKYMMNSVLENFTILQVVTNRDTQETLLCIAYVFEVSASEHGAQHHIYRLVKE
# Chain of UniProt Q14145 (whole entry, looked up): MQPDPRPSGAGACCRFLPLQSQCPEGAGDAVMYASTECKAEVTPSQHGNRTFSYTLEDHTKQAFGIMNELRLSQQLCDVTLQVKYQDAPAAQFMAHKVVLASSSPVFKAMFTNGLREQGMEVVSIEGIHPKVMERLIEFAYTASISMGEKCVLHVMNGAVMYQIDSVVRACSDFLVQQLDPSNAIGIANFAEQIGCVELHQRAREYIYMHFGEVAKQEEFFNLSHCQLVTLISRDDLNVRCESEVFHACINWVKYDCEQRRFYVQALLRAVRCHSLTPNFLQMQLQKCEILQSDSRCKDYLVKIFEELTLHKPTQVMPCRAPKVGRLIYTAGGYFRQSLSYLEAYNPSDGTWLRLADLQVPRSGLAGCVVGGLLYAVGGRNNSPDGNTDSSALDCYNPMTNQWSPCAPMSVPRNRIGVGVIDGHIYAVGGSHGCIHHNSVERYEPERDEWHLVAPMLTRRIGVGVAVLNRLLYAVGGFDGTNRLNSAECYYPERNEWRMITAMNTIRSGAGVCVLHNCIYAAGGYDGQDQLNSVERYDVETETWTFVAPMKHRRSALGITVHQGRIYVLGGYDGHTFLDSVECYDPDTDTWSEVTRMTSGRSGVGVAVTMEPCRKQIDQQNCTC
# Chain of UniProt Q2FV99 (whole entry, looked up): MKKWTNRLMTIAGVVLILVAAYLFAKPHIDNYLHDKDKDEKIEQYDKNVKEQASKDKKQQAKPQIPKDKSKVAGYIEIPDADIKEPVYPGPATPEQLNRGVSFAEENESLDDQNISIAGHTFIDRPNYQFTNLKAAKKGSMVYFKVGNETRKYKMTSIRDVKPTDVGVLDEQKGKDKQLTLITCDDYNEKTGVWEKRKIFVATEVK
# Chain of UniProt P63092 (whole entry, looked up): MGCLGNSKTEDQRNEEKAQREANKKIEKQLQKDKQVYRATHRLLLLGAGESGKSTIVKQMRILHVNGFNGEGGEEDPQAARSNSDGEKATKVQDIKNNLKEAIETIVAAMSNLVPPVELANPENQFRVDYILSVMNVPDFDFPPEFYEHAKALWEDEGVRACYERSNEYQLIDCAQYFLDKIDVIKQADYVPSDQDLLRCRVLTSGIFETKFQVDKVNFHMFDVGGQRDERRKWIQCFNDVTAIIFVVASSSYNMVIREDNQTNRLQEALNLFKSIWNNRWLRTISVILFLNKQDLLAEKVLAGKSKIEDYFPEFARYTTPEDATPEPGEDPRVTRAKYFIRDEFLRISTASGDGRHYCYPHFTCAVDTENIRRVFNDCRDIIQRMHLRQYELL
# Chain of UniProt P0AFY6 (whole entry, looked up): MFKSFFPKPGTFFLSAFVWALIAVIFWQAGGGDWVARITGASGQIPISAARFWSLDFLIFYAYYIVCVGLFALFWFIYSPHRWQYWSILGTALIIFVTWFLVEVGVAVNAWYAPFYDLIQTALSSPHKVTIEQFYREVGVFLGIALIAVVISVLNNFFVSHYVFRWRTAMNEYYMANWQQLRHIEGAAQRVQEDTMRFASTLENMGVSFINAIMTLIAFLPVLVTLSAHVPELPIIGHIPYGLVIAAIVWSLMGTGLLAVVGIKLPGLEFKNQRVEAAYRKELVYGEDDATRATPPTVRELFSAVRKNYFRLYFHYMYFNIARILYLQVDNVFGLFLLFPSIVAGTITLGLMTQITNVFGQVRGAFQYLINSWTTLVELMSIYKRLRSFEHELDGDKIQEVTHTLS
# Chain of UniProt P08191 (whole entry, looked up): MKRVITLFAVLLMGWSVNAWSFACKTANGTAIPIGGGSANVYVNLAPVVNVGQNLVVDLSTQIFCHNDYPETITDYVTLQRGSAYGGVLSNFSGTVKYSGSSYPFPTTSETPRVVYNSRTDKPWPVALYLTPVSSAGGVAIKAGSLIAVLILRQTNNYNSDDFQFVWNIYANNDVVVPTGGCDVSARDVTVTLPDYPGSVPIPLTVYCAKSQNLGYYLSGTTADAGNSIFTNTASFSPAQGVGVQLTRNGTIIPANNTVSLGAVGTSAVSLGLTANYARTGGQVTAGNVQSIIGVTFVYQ
# Chain of UniProt P07148 (whole entry, looked up): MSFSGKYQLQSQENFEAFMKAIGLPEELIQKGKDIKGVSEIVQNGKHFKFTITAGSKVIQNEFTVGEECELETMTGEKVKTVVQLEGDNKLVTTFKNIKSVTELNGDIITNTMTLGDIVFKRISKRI
Molecule,target,test,system,conditions,how to read,Kd
C#Cc1ccc2ccc3ccccc3c2c1,Cytochrome P450 2A13,"binding, absorbance",,pH 7.4,,0.45 µM
CC(=O)N[C@@H](CC(C)C)C(=O)N1CCC[C@H]1C(=O)N[C@H]1CCCCNC(=O)c2cc3cc(c2)NC(=O)CSC[C@H](NC(=O)[C@H](CO)NC(=O)[C@H](C(C)C)NC(=O)[C@H](Cc2c[nH]c4ccccc24)NC(=O)[C@H](CO)NC(=O)[C@H]([C@@H](C)O)NC(=O)[C@H](CC(C)C)NC(=O)CNC(=O)[C@H]([C@@H](C)O)NC1=O)C(=O)N[C@@H](Cc1c[nH]cn1)C(=O)N[C@@H](Cc1ccccc1)C(=O)N[C@@H](CC(C)C)C(=O)N[C@@H](CCCNC(=N)N)C(=O)N[C@@H](CO)C(=O)N[C@@H](CC(C)C)C(=O)N[C@H](C(=O)NCC(=O)NCC(=O)N[C@@H](CO)C(=O)NCC(N)=O)CSCC(=O)N3,"TEAD4 (Homo sapiens, UniProt Q15561)","binding, FP",,,,0.0639 µM
CCCCC/C=C\C/C=C\C/C=C\C/C=C\CCCC(=O)NCCO,"FABP1 (Homo sapiens, UniProt P07148)","binding, DAUDA displacement",,together with: DAUDA 0.5 µM,,0.19 ± 0.12 µM
CCc1nc2ccccc2cc1C(=O)O,HIV-1 frameshift-stimulating RNA stem-loop,fluorescence titration,,"pH 7.2, 25 °C, together with: 20-fold yeast tRNA",,no binding
CSCC[C@H](NC(=O)[C@H](CO)NC(=O)[C@@H](NC(=O)[C@H](CCC(N)=O)NC(=O)[C@H](CCCCN)NC(=O)[C@H](CCCCN)NC(=O)[C@H](CCCNC(=N)N)NC(=O)[C@H](CCCCN)NC(C)=O)[C@@H](C)O)C(=O)N[C@H](C(=O)N[C@@H](CC(=O)O)C(=O)N[C@@H](Cc1ccccc1)C(=O)N[C@@H](Cc1ccc(O)cc1)C(=O)N[C@@H](Cc1c[nH]cn1)C(=O)N[C@@H](CO)C(=O)N[C@@H](CCCNC(=N)N)C(=O)N[C@@H](CCCCN)C(=O)N[C@@H](CCCCN)C(N)=O)[C@@H](C)O,"PCNA (Homo sapiens, UniProt P12004)","binding, ITC",,pH 7.4,,0.087 µM
Nc1ncnc2c1ncn2[C@@H]1O[C@H](COP(=O)(O)OP(=O)(O)O)[C@@H](O)[C@H]1O,"matB (Rhodopseudomonas palustris, UniProt Q6ND88, C106A/K488A/Q457C/R286C)","binding, fluorescence titration",,"pH 7.0, 20 °C",,428 ± 50 µM
O=C(N[C@H](CO)[C@H](O)c1ccc([N+](=O)[O-])cc1)C(Cl)Cl,cat,"ligand, native ESI-MS",,"second ligand binding, gas phase, together with: 200 mM ammonium acetate",,90 ± 40 µM
C=CC1=C(C)c2cc3[nH]c(cc4nc(cc5[nH]c(cc1n2)c(C)c5C=C)C(C)=C4CCC(=O)O)c(CCC(=O)O)c3C.[Fe+3],"Ferrichrome-binding lipoprotein FhuD (Listeria monocytogenes, UniProt Q8Y5U6)","binding, tryptophan fluorescence quenching",,His tag removed,,0.711 ± 0.183 µM
C=CC1=C(C)c2cc3[nH]c(cc4nc(cc5[nH]c(cc1n2)c(C)c5C=C)C(C)=C4CCC(=O)O)c(CCC(=O)O)c3C.[Fe+3],"Kelch protein K13 (Plasmodium falciparum, UniProt Q8IDQ2, A578S)",,,,,0.066 ± 0.0179 µM
CCCCCCCC[N+](CCO)(CCO)CCO,potassium channel,steady-state block,Doryteuthis pealeii,"internal application, together with: membrane potential +100 mV",,1110 µM
cGMP,"Potassium/sodium hyperpolarization-activated cyclic nucleotide-gated channel 2, C-linker/CNBD (Hcn2, Mus musculus, UniProt O88703, E582A)","binding, ITC",,"E582A mutant, single-site model",,690 µM
CCCCCCCO[C@@H]1C[C@@H](O)[C@@H](O)[C@H](O)[C@@H](CO)O1,"Type 1 fimbrin D-mannose specific adhesin, lectin domain (fimH, Escherichia coli K-12, UniProt P08191)","binding, competitive fluorescence polarization",,"pH 7.4, isolated lectin domain",,> 500 µM
CC[C@H](C)[C@@H]1NC(=O)[C@H](CC(N)=O)NC(=O)[C@H](C)NC(=O)[C@@H](NC(=O)[C@H](CO)NC(=O)[C@H](CCC(N)=O)NC(C)=O)CSCc2cccc(c2)C[S+](C)CC[C@@H](C(=O)N[C@@H](Cc2ccc(O)cc2)C(=O)N[C@@H](CCCCN)C(=O)N[C@H](C(=O)O)C(C)C)NC1=O (stereo partly drawn),"Regulator of G-protein signaling 3, PDZ domain (Rgs3, Mus musculus, UniProt Q9DC04)",fluorescence polarization,,"1 h, pH 7.4, 25 °C, together with: FAM-labelled peptide tracer",,16.9 µM
COC(=O)[C@H]1C(c2ccc(I)cc2)C[C@@H]2CC[C@H]1N2C (stereo partly drawn),"SLC6A3 (Homo sapiens, UniProt Q01959)","binding, radioligand saturation binding",HEK293 hDAT membranes,90 min,,0.00148 ± 0.00023 µM
CC1=C(/C=C/C(C)=C/C=C/C(C)=C/C=C/C=C(C)/C=C/C=C(C)/C=C/C2=C(C)C[C@@H](O)CC2(C)C)C(C)(C)C[C@H](O)C1,"Albumin (ALB, Homo sapiens, UniProt P02768)","binding, SPR",,,,1.71 µM
CC#Cc1ccc2ccc3ccccc3c2c1,Cytochrome P450 2A13,"binding, absorbance",,pH 7.4,,1.2 µM
N#C[C@H](O[C@@H]1O[C@H](CO[C@@H]2O[C@H](CO)[C@@H](O)[C@H](O)[C@H]2O)[C@@H](O)[C@H](O)[C@H]1O)c1ccccc1,"ACE2 (Homo sapiens, UniProt Q9BYF1)","binding, SPR",,,,0.221 µM
CC[N+](CC)(CC)CCCc1ccccc1,potassium channel,steady-state block,Doryteuthis pealeii,"internal application, together with: membrane potential +100 mV",,7 µM
CC[C@H](C)[C@H](NC(=O)[C@@H]1CCCN1C(=O)[C@H](CC(C)C)NC(=O)[C@H](Cc1ccccc1)NC(=O)[C@H](CCC(=O)O)NC(=O)CNC(=O)[C@@H](NC(=O)[C@H](CCC(=O)O)NC(=O)[C@H](CCC(=O)O)NC(=O)[C@H](CC(=O)O)NC(=O)[C@H](CC(C)C)NC(=O)[C@H](CCC(N)=O)NC(=O)[C@H](CC(C)C)NC(=O)[C@H](CCC(N)=O)NC(=O)[C@H](C)NC(=O)[C@H](Cc1ccccc1)NC(C)=O)[C@@H](C)O)C(=O)N[C@@H](CCC(N)=O)C(=O)N1CCC[C@H]1C(=O)N[C@@H](C)C(=O)N[C@@H](CCC(N)=O)C(N)=O,"KEAP1 (Homo sapiens, UniProt Q14145)","binding, ITC",,pH 7,,0.023 µM
CC(=O)N[C@@H](C)C(=O)N[C@@H](Cc1ccccc1)C(=O)N[C@@H](CCCNC(=N)N)C(=O)N[C@@H](C)C(=O)N[C@@H](CC(=O)O)C(=O)N[C@H](C(=O)N[C@@H](CCCNC(=N)N)C(=O)N[C@@H](C)C(=O)N[C@@H](CCC(=O)O)C(=O)N[C@@H](CCCNC(=N)N)C(=O)N[C@@H](C)C(=O)N[C@@H](CCC(=O)O)C(N)=O)C(C)C,"Amyloid-beta precursor protein, Aβ40 fibrils (APP, Homo sapiens, UniProt P05067)",isothermal titration calorimetry,sodium phosphate buffer,"pH 8, 25 °C, peptide titrated into protein",,20.4 µM
CCSCCNC(=O)CCNC(=O)[C@H](O)C(C)(C)COP(=O)(O)OP(=O)(O)OC[C@H]1O[C@@H](n2cnc3c(N)ncnc32)[C@H](O)[C@@H]1OP(=O)(O)O,cat,"ligand, native ESI-MS",,"first ligand binding, gas phase, together with: 200 mM ammonium acetate",,5 ± 2 µM
CCCCCCCCCCCCCCCC(=O)N[C@@H](CCSC)C(=O)O,"Bifunctional cytochrome P450/NADPH--P450 reductase, heme domain (cyp102A1, Bacillus megaterium, UniProt P14779)","substrate binding, substrate, UV-vis spectral titration",,"pH 7.4, room temperature, wild-type heme domain",,< 0.03 µM
CCCCCCCC[N+](CC)(CC)CC,potassium channel,steady-state block,Doryteuthis pealeii,"internal application, together with: membrane potential +100 mV",,7.3 µM
CSCC[C@H](NC(=O)[C@H](CC(C)C)NC(=O)[C@H](Cc1ccccc1)NC(=O)[C@H](CC(=O)O)NC(=O)[C@H](Cc1ccc(O)cc1)NC(=O)[C@H](Cc1c[nH]c2ccccc12)NC(=O)[C@@H](NC(=O)[C@@H](NC(=O)[C@H](CCCNC(=N)N)NC(=O)[C@@H](N)CO)C(C)C)[C@@H](C)O)C(=O)N[C@@H](CCC(=O)O)C(=O)N[C@@H](CC(=O)O)C(=O)N[C@H](C(=O)N[C@@H](CCCCN)C(=O)N[C@@H](CO)C(=O)N[C@@H](CCCNC(=N)N)C(=O)O)[C@@H](C)O,"GNAS, GDP-bound (Homo sapiens, UniProt P63092)",microscale thermophoresis,,,,no binding
bleomycin,"Peptide antibiotic transporter SbmA (sbmA, Escherichia coli, UniProt P0AFY6)",microscale thermophoresis,nanodiscs,room temperature,,0.088 ± 0.014 µM
CSCC[C@H](NC(C)=O)C(=O)N[C@@H](C)C(=O)N[C@@H](C)C(=O)N[C@H](C(=O)N[C@@H](C)C(=O)NCC(=O)N[C@@H](CC(C)C)C(=O)N[C@@H](Cc1ccc(O)cc1)C(=O)NCC(=O)N[C@@H](CC(C)C)C(=O)NCC(=O)N[C@@H](CCCCN)C(=O)N[C@@H](CCCCN)C(=O)N[C@@H](CCCNC(=N)N)C(=O)N[C@@H](CCC(N)=O)C(=O)N[C@@H](Cc1c[nH]cn1)C(=O)N[C@@H](CCCNC(=N)N)C(=O)N[C@@H](CCCCN)C(=O)N[C@@H](CCCCN)C(=O)N[C@@H](CCC(N)=O)C(N)=O)C(C)C,"Kcnma1 (Mus musculus, UniProt Q08460, E386N/E389N)","ion current, blocker, inside-out patch clamp",,"E321N/E324N double mutant, 120 mV",,89 µM
CC[C@H](C)[C@H](NC(=O)[C@H](CCCNC(=N)N)NC(=O)CNC(=O)[C@H](Cc1c[nH]c2ccccc12)NC(=O)[C@@H]1CSC[C@@H](NC(=O)[C@H](Cc2ccc(O)cc2)NC(=O)[C@H](Cc2c[nH]c3ccccc23)NC(=O)[C@H](CC(C)C)NC(=O)CNC(=O)[C@H](CCCNC(=N)N)NC(=O)c2ccc3c(c2)C(=O)OC32c3ccc(O)cc3Oc3cc(O)ccc32)C(=O)N[C@@H](CC(C)C)C(=O)N[C@@H](CO)C(=O)N1)C(=O)NCC(=O)N[C@@H](CCCNC(=N)N)C(=O)N[C@@H](CCCNC(=N)N)C(=O)NCCCOCCOCCOCCCNC(=O)CCC(=O)NCCCOCCOCCOCCCNC(=O)CCC(=O)NCCCOCCOCCOCCCNC(=O)CCC(=O)N[C@@H](C)C(=O)O,"srtA (Staphylococcus aureus, UniProt Q2FV99)","binding, fluorescence polarization",,"no Ca2+, 2 mM EDTA",lower = stronger binding,> 1000 µM
CC[N+](CC)(CC)CC(=O)Nc1c(C)cccc1C,"sodium channel (rat brain), batrachotoxin-modified","open channel block, blocker, planar lipid bilayer, single channel",,"high affinity open state, +60 mV",,580 µM
C[C@H](CNc1ccc([N+](=O)[O-])c2nonc12)[C@H]1CC[C@H]2[C@@H]3CC=C4C[C@@H](O)CC[C@]4(C)[C@H]3CC[C@]12C,"Sterol carrier protein 2 (Aedes aegypti, UniProt Q86PR3)",binding,,no competitor,,0.99 µM
CC[C@H](C)[C@H](NC(=O)[C@H](CC(=O)O)NC(=O)[C@H](CO)NC(=O)[C@@H]1CCCN1C(=O)[C@H](Cc1ccc(O)cc1)NC(=O)[C@H](Cc1ccccc1)NC(=O)CNC(=O)[C@H](CCCCN)NC(=O)[C@@H](NC(=O)[C@H](CC(C)C)NC(=O)[C@H](CS)NC(=O)[C@@H](NC(=O)[C@@H](N)CC(C)C)[C@@H](C)O)C(C)C)C(=O)O,"Ficolin-3 (FCN3, Homo sapiens, UniProt O75636)",SPR,,GlcNAc-BSA chip,,~1 µM
CN[C@H](CC(C)C)C(=O)N[C@H]1C(=O)N[C@@H](CC(N)=O)C(=O)N[C@H]2C(=O)N[C@H]3C(=O)N[C@H](C(=O)N[C@H](C(=O)O)c4cc(O)cc(O)c4-c4cc3ccc4O)[C@H](O)c3ccc(c(Cl)c3)Oc3cc2cc(c3O[C@@H]2O[C@H](CO)[C@@H](O)[C@H](O)[C@H]2O[C@H]2C[C@](C)(N)[C@H](O)[C@H](C)O2)Oc2ccc(cc2Cl)[C@H]1O,MBP-Lys-D-Ala-D-Ala fusion,"binding, SPR",,25 °C,,4.8 ± 0.1 µM
O=c1ccn([C@H]2C[C@H](O)[C@@H](COS(=O)(=O)O)O2)c(=O)[nH]1,"thyX (Thermotoga maritima, UniProt Q9WYT0)",,,,,0.17 ± 0.08 µM
CC[C@H](C)[C@H](NC(=O)[C@@H]1CCCN1C(=O)[C@@H](NC(=O)[C@H](CC(=O)O)NC(=O)[C@@H](NC(=O)[C@@H](N)CC(=O)O)[C@@H](C)O)[C@@H](C)O)C(=O)N[C@H](C(=O)N[C@@H](Cc1ccc(O)cc1)C(=O)N[C@@H](CC(N)=O)C(=O)N[C@@H](CC(=O)O)C(=O)N[C@@H](CCCNC(=N)N)C(=O)N[C@@H](CC(=O)O)C(=O)N[C@@H](CC(C)C)C(=O)N[C@@H](CC(C)C)C(=O)N[C@@H](CC(=O)O)C(=O)O)C(C)C,"HSPA1A (Homo sapiens, UniProt P0DMV8)","binding, SPR",,pH 7.4,,782 µM

# A few entries again:
Molecule,target,test,system,conditions,how to read,Kd
bleomycin,"Peptide antibiotic transporter SbmA (sbmA, Escherichia coli, UniProt P0AFY6)",microscale thermophoresis,nanodiscs,room temperature,,0.088 ± 0.014 µM
CSCC[C@H](NC(C)=O)C(=O)N[C@@H](C)C(=O)N[C@@H](C)C(=O)N[C@H](C(=O)N[C@@H](C)C(=O)NCC(=O)N[C@@H](CC(C)C)C(=O)N[C@@H](Cc1ccc(O)cc1)C(=O)NCC(=O)N[C@@H](CC(C)C)C(=O)NCC(=O)N[C@@H](CCCCN)C(=O)N[C@@H](CCCCN)C(=O)N[C@@H](CCCNC(=N)N)C(=O)N[C@@H](CCC(N)=O)C(=O)N[C@@H](Cc1c[nH]cn1)C(=O)N[C@@H](CCCNC(=N)N)C(=O)N[C@@H](CCCCN)C(=O)N[C@@H](CCCCN)C(=O)N[C@@H](CCC(N)=O)C(N)=O)C(C)C,"Kcnma1 (Mus musculus, UniProt Q08460, E386N/E389N)","ion current, blocker, inside-out patch clamp",,"E321N/E324N double mutant, 120 mV",,89 µM
